Published values pooled from the literature.
Each line is one published result; not all experiments were run side by side. “And” joins repeats or separate records; there may be more than shown. ± marks the error that the study gave.

| Structure (SMILES) | assay | test system | conditions | how to read | measurement | result |
| --- | --- | --- | --- | --- | --- | --- |
| C[C@]12CC[C@@H]3c4ccc(OCC(=O)N[C@@H](CCCCNC(=O)CN5CCN(CC(=O)[O-])CCN(CC(=O)[O-])CCN(CC(=O)[O-])CC5)C(=O)O)cc4CC[C@H]3[C@@H]1CCC2=O.[68Ga+3] |  | female nude mice, MCF7 xenograft | 2.5 h post injection |  | tumour uptake | 2.69 ± 0.57 % IA/g |
| CCCC[C@H](NC(=O)CNC(=O)CNC(=O)CN1CCN(CC(=O)O)CCN(CC(=O)O)CC1)C(=O)N[C@H]1CC(=O)NCCCC[C@@H](C(N)=O)NC(=O)[C@H](Cc2c[nH]c3ccccc23)NC(=O)[C@H](CCCNC(=N)N)NC(=O)[C@@H](Cc2ccccc2)NC(=O)[C@H](Cc2c[nH]cn2)NC1=O [gallium-67 labelled] |  | female C57 mice, B16/F1 melanoma | intravenous, 0.037 MBq, 24 h | relative to: tumour over lung | tumour to tissue ratio | 22.5 |
| N=C(N)NCCC[C@H](NC(=O)CON=C[C@H](F)[C@@H](O)[C@H](O)[C@H](O)CO)C(=O)NCC(=O)N[C@@H](CC(=O)O)C(=O)O [fluorine-18 labelled] |  | nude mice, U-87 MG xenograft, tumour | intravenous, 2 h |  | tumour uptake | 0.27 ± 0.06 %ID/g |
| CCN(CC)c1ccc2c(-c3ccc(S(=O)(=O)NCCNC(=O)CN4CCN(CC(=O)[O-])CCN(CC(=O)O)CCN(CC(=O)[O-])CC4)cc3S(=O)(=O)[O-])c3ccc(=[N+](CC)CC)cc-3oc2c1.[64Cu+2] |  | athymic nude mice, U-87 MG glioma xenograft | intravenous, 4 h post-injection |  | tumour uptake | 7.6 %ID/g and 7.58 %ID/g |
| N=C(N)NCCC[C@H](NC(=O)[C@@H]1CSSC[C@H](NC(=O)[C@H](Cc2ccc3ccccc3c2)NC(=O)[C@H](CCCNC(=N)N)NC(=O)[C@H](CCCNC(=N)N)NC(=S)Nc2ccc(C[C@H]3CN(CC(=O)O)CCN(CC(=O)O)CCN3CC(=O)O)cc2)C(=O)N[C@@H](Cc2ccc(O)cc2)C(=O)N[C@@H](CCCNC(N)=O)C(=O)N[C@@H](CCCCN)C(=O)N[C@H](CCCCN)C(=O)N2CCC[C@H]2C(=O)N[C@@H](Cc2ccc(O)cc2)C(=O)N[C@@H](CCCNC(=N)N)C(=O)N[C@@H](CCCNC(N)=O)C(=O)N1)C(N)=O [copper-64 labelled] |  | mice, CHO-CXCR4 tumour and spleen | 4 h, with: unlabeled peptide 50 µg |  | tumour and spleen uptake | inhibited |
| CCCC[C@H](NC(=O)CNC(=O)CNC(=O)CN1CCN(CC(=O)O)CCN(CC(=O)O)CCN(CC(=O)O)CC1)C(=O)N[C@H]1CC(=O)NCCCC[C@@H](C(N)=O)NC(=O)[C@H](Cc2c[nH]c3ccccc23)NC(=O)[C@H](CCCNC(=N)N)NC(=O)[C@@H](Cc2ccccc2)NC(=O)[C@H](Cc2c[nH]cn2)NC1=O [gallium-67 labelled] |  | female C57 mice, B16/F1 melanoma | intravenous, 0.037 MBq, 2 h | relative to: tumour over lung | tumour to tissue ratio | 63.5 |
| CCCC[C@@H]1NC(=O)[C@@H](NC(=O)[C@H](CCC(=O)O)NC(=O)CNC(=O)CN2CCN(CC(=O)O)CCN(CC(=O)O)CCN(CC(=O)O)CC2)CCCCNC(=O)C[C@@H](C(N)=O)NC(=O)[C@H](C(C)C)NC(=O)[C@@H]2CCCN2C(=O)[C@H](CCCNC(=N)N)NC(=O)CNC(=O)[C@H](Cc2c[nH]c3ccccc23)NC(=O)[C@H](CCCNC(=N)N)NC(=O)[C@@H](Cc2ccccc2)NC(=O)[C@H](Cc2c[nH]cn2)NC(=O)[C@H](CCC(=O)O)NC1=O [gallium-67 labelled] |  | B16/F1 melanoma-bearing C57 mice | intravenous, 0.037 MBq, 24 h |  | tumour to muscle ratio | 55.8 |
| N=C(N)NCCC[C@H](NC(=O)[C@@H]1CSSC[C@H](NC(=O)[C@H](Cc2ccc3ccccc3c2)NC(=O)[C@H](CCCNC(=N)N)NC(=O)[C@H](CCCNC(=N)N)NC(=O)CN2CCN(CC(=O)O)CCN(CC(=O)O)CCN(CC(=O)O)CC2)C(=O)N[C@@H](Cc2ccc(O)cc2)C(=O)N[C@@H](CCCNC(N)=O)C(=O)N[C@@H](CCCCN)C(=O)N[C@H](CCCCN)C(=O)N2CCC[C@H]2C(=O)N[C@@H](Cc2ccc(O)cc2)C(=O)N[C@@H](CCCNC(=N)N)C(=O)N[C@@H](CCCNC(N)=O)C(=O)N1)C(N)=O [copper-64 labelled] | PET | mice with CHO-CXCR4 tumours, CHO-CXCR4 tumour | 100 µCi, 1 h |  | tumour uptake | 4.09 ± 1.37 %ID/g |
| CC(C)(C)ONc1nc(Nc2ccnc(C(F)(F)F)c2)nc(-c2cccc(C(F)(F)F)n2)n1 |  | female Balb/cA nude mice xenograft | oral, 54.14 mg/kg, half-life | relative to: tumour over plasma | tumour to plasma ratio | 2.1 fold |
| O=C([O-])CN1CCN(CC(=O)[O-])CCN(CC(=O)NCCc2ccc3c(c2)C2C=CCC2C(c2cc4c(cc2Br)OCO4)N3)CCN(CC(=O)[O-])CC1.[111In+3] (centres unmarked) |  | mice with Hec50 tumour xenograft | 1 h | relative to: tumour over blood | tumour to tissue ratio | 0.71 |
| N=C(N)NCCC[C@@H]1NC(=O)[C@H](CCCCNC(=O)CON=C[C@H](F)[C@@H](O)[C@H](O)[C@H](O)CO)NC(=O)[C@@H](Cc2ccc(O)cc2)NC(=O)[C@H](CC(=O)O)NC(=O)CNC1=O [fluorine-18 labelled] |  | nude mice, U-87 MG xenograft, tumour | intravenous, 2 h |  | tumour uptake | 1.53 ± 1.59 %ID/g |
